# Measurements collected from several papers.
# Compare with care: the assays were run in different laboratories. Values joined by “and” are separate records of one study, mostly repeats; a detail may differ. ± marks the error that the study gave.
# TOP2A: DNA topoisomerase 2-alpha (TOP2A, Homo sapiens, UniProt P11388)
# Sequence of UniProt P11388 (whole entry, looked up): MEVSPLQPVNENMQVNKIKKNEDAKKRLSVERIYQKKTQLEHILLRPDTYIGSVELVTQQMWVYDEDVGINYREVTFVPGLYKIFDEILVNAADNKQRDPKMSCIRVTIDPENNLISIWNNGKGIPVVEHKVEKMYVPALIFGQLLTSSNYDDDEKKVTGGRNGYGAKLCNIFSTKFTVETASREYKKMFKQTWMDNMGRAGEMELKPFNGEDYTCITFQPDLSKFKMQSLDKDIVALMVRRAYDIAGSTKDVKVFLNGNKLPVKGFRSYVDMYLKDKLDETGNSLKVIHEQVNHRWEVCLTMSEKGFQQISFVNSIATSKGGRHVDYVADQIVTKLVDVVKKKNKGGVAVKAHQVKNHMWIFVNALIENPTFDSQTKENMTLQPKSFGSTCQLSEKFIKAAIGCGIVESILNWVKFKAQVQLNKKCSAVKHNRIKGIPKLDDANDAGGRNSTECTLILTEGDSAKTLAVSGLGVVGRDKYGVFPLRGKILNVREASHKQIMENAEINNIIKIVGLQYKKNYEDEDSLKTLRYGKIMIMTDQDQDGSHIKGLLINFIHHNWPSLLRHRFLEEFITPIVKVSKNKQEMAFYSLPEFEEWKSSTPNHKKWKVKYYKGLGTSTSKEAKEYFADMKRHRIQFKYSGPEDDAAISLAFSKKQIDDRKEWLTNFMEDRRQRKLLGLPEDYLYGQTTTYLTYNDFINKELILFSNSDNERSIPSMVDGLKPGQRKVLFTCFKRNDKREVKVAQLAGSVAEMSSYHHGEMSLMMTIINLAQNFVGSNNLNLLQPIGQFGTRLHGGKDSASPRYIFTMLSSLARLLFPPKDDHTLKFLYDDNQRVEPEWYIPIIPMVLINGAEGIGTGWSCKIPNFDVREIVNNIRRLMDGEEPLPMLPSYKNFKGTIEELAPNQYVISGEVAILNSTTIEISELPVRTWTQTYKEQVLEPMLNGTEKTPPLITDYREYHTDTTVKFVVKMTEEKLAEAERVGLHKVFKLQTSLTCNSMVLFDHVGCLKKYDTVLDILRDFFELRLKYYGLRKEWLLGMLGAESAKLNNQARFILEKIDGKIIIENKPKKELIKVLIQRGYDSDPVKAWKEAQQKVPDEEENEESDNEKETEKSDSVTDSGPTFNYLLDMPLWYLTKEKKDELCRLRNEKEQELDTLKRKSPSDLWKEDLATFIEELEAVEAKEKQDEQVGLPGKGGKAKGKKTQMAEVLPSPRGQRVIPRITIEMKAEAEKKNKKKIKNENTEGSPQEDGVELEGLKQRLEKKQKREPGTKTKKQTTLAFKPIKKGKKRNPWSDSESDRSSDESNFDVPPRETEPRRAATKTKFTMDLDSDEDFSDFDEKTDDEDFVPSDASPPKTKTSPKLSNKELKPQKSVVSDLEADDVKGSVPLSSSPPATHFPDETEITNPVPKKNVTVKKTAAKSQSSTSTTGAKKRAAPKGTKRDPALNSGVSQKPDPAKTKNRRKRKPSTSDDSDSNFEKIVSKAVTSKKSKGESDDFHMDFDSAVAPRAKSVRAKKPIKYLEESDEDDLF
# ALB: Albumin (ALB, Bos taurus, UniProt P02769)
# Sequence of UniProt P02769 (whole entry, looked up): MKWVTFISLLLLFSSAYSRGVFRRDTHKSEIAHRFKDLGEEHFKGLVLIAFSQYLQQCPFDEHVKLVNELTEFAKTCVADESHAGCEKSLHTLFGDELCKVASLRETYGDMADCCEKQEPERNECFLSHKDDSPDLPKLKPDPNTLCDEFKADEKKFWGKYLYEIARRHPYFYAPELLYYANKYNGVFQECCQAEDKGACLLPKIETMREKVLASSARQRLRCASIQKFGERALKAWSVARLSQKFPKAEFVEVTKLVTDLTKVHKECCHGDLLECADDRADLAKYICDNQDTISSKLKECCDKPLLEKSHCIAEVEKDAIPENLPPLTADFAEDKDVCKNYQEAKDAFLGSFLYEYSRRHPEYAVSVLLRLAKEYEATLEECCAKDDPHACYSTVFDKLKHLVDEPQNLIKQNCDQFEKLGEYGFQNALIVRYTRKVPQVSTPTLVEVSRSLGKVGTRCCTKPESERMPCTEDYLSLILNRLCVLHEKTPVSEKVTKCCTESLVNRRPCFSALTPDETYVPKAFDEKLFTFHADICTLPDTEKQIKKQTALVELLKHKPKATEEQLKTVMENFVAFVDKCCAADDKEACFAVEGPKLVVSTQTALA
# GLP1R: Glucagon-like peptide 1 receptor (GLP1R, Homo sapiens, UniProt P43220)
# Sequence of UniProt Q8WUM0 (whole entry, looked up): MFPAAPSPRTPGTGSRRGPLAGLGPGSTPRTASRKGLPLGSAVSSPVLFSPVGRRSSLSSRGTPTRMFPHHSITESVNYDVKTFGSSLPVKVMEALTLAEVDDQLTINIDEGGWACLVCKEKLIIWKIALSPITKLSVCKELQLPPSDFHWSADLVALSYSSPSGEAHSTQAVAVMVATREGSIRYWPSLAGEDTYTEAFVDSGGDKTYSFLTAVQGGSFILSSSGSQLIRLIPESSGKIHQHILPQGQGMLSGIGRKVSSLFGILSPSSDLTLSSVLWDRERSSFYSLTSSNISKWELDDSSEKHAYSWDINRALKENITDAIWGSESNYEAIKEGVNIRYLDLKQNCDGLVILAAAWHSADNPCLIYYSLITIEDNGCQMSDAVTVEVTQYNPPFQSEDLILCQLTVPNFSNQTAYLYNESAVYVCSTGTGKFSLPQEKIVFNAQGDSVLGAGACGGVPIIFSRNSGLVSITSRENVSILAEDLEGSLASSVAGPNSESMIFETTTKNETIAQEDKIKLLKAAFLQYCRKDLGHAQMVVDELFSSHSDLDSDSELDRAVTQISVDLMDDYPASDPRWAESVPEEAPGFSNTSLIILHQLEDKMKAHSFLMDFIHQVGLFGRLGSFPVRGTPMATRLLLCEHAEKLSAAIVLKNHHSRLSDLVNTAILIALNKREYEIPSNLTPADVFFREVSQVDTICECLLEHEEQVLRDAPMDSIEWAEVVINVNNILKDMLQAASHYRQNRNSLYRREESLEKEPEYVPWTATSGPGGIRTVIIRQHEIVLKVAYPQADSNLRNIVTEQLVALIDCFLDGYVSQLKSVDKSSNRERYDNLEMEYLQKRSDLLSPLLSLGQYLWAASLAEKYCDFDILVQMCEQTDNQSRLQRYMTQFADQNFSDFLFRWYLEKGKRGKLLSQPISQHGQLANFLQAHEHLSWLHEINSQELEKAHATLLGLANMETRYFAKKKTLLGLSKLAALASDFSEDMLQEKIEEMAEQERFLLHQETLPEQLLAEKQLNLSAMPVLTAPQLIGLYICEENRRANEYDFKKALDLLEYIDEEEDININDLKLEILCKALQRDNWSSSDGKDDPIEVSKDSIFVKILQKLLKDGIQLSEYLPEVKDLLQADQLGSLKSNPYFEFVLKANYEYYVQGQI
# Sequence of UniProt Q16774 (whole entry, unmodified, looked up): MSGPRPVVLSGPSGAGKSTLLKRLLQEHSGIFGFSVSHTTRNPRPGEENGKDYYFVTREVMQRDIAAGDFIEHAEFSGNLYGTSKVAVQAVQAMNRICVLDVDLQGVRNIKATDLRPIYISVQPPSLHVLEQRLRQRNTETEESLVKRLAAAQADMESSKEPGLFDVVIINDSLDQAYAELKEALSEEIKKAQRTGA
# Sequence of UniProt O60331 (whole entry, looked up): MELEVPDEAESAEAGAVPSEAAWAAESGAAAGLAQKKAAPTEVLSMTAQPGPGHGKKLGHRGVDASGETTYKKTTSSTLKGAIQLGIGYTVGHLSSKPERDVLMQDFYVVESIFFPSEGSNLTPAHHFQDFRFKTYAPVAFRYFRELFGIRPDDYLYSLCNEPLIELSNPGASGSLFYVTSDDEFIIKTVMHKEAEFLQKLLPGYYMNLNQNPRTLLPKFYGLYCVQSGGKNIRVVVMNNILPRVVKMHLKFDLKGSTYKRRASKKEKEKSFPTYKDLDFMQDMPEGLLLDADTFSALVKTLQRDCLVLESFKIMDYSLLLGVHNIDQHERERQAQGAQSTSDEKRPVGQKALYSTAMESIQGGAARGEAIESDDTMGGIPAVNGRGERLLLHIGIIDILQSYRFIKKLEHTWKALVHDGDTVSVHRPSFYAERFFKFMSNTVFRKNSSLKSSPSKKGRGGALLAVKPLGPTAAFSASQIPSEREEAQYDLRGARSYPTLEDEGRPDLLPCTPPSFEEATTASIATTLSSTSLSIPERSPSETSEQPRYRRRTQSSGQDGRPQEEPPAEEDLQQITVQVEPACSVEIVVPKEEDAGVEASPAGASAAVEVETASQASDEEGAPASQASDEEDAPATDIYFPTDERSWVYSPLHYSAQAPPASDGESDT
# Sequence of UniProt P63079 (whole entry, looked up): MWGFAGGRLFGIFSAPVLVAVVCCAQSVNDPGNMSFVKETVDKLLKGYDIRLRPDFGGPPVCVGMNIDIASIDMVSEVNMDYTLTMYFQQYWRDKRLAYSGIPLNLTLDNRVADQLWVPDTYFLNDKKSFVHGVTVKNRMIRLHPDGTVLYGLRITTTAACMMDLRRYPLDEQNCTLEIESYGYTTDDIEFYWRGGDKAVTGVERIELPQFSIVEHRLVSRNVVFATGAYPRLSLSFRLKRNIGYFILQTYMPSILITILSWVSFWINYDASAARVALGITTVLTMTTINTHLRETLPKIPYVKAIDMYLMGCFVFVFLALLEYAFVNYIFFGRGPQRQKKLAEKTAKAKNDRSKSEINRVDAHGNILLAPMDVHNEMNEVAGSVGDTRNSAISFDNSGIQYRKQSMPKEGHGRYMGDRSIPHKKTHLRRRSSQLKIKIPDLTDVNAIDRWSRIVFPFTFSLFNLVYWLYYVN
# Sequence of UniProt P41597 (whole entry, looked up): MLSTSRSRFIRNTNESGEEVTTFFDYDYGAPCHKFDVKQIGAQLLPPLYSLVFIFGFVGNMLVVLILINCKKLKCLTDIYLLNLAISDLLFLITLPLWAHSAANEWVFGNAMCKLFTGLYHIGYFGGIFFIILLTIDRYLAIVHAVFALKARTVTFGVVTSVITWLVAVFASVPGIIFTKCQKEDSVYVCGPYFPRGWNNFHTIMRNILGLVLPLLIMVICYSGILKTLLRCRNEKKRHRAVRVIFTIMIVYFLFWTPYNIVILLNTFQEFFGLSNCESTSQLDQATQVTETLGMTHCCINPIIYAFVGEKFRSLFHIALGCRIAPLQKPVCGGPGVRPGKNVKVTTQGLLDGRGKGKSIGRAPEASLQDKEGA
Structure (SMILES),target,assay,test system,setting,how to read,endpoint,value
CC[C@@H]1[C@H](F)C(=O)N[C@@H]1COc1nccc2cc(C(N)=O)c(OC)cc12,"MAP2K6 (Homo sapiens, UniProt P52564)","ATP-site probe binding, ActivX profiling",THP-1 cell lysate,"0.04 mM, Lys2 site",,inhibition,4.7%
CN1CCN(S(=O)(=O)c2ccc(-c3cnc(N)c(C(=O)Nc4cccnc4)n3)cc2)CC1,NanoBiT HiBiT/LgBiT luciferase,"inhibitor, HiBiT luminescence counterscreen",conditioned medium only,"5 µM, 24 h",reference: vehicle,luminescence signal reduction,-6.55%
CC(=O)N[C@H]1[C@H]([C@H](O)[C@H](O)CO)O[C@@](OC[C@H]2O[C@@H](Oc3ccc([N+](=O)[O-])cc3)[C@H](O)[C@@H](O)[C@H]2O)(C(=O)O)C[C@@H]1O,"Sialidase-2 (Homo sapiens, UniProt Q9Y3R4)",substrate,,"10 min, pH 5.0, 37 °C",,Vmax,0.0012 ± 0.0001 mM/s
C=CC(=O)N1CCC(C(=O)NCC(=O)N2CCN(c3nc(-c4cnc(N)nc4C(F)F)nc(N4CCOCC4)n3)CC2)CC1,"STK32B (Homo sapiens, UniProt Q9NY57)",KINOMEscan,,1 µM,,remaining binding,93%
O=C(O)c1ccc(Nc2ncc3c(n2)-c2ccc(Cl)cc2C(c2c(F)cccc2F)=NC3)cc1,human CK1δ(h),kinase activity,,1 µM,,remaining activity,129%
CC(C)C(=O)Nc1n[nH]c2cc(-c3cccc(NS(=O)(=O)C4CC4)c3)ccc12,"PIP5K1C (Homo sapiens, UniProt O60331)",ADP-Glo,,"41.2 nM, added: 10 µM ATP",,ADP produced,2.76 µM
CN1CCN(c2cc(-c3ccncc3)c(-c3ccc4ccccc4c3)nn2)CC1,"CCR2 (Homo sapiens, UniProt P41597)","agonist, FLIPR",,12.5 µM,,activation,0.7%
O=c1nc(SCc2cc(F)cc(C(F)(F)F)c2)nc(SCc2csc3ccc(Cl)cc23)[nH]1,TOP2A,decatenation,,"7.8 µM, replicate 2",,decatenated DNA,91.9%
C[C@@H]1CCN(C(=O)CCl)[C@@H](C(N)=O)C1,human NEDD9 full length,"LC-MS peptide mapping, item: Cys18",,"50 µM, 18 h",,cysteine occupancy,58.3%
NCC[C@H](O)C(=O)N[C@@H]1C[C@H](N)[C@@H](O[C@H]2O[C@H](CN)[C@@H](O)[C@H](O)[C@H]2O)[C@H](O)[C@H]1O[C@H]1O[C@H](CO)[C@@H](O)[C@H](N)[C@H]1O,ALB,tryptophan fluorescence quenching,,"10 to 60 µM, 289 K",,Stern-Volmer quenching constant,2.17 10³ M⁻¹
CCCCC[S+]([O-])c1n[nH]c(N)n1 (centres unmarked),"Transcription intermediary factor 1-alpha, PHD-bromodomain (TRIM24, Homo sapiens, UniProt O15164)","binding, affinity selection mass spectrometry",,,reference: other proteins in batch,log fold enrichment,-0.0585
O=c1nc(SCc2cc(F)cc(C(F)(F)F)c2)nc(SCc2ccc3nc(Cl)ccc3c2)[nH]1,TOP2A,ATPase activity,,"31.25 µM, added: ATP 1 mM",,ATP hydrolysis rate,2.44 µM/min and 1.75 µM/min
Cc1ccc(-n2nc(C)c3c(N)nc(N)nc32)c(Cl)c1,"PIK3CG (Homo sapiens, UniProt P48736)",KinomeScan competition,,7.5 µM,,remaining binding,32%
O=C(O)C1CCCNC1 (centres unmarked),"SLC6A6 (Homo sapiens, UniProt P31641, Y138A)","binding, microscale thermophoresis",,"500 µM, room temperature, added: 50 nM labelled protein",higher = more binding,normalised MST signal,0.961
[O-][S+]1CCCCS1 (centres unmarked),"SOD1 (Homo sapiens, UniProt P00441, G94A)",LC-MS,human whole blood,"50 µM, 1 h, 37 °C",,SOD1 monomer fraction,90.6%
COc1cccc(-n2nc3c4cc(Cl)ccc4[nH]cc-3c2=O)c1,"Gamma-aminobutyric acid receptor subunit alpha-6/beta-3, with delta subunit (Gabra6/Gabrb3, Rattus norvegicus, UniProt P30191+P63079)","ion current, modulator, two-electrode voltage clamp",,"3 µM, α6β3δ receptor, added: GABA EC3-10",,efficacy,118.3 ± 0.2%
CC1(C)S[C@@H]2[C@H](NC(=O)[C@H](N)c3ccccc3)C(=O)N2[C@H]1C(=O)O,beta-lactamase RAD-1 (Riemerella anatipestifer),"substrate, continuous spectrophotometric hydrolysis",,30 °C,,Km,298 ± 27 µM
Cc1ncsc1-c1ccc(CNC(=O)[C@@H]2C[C@H](O)CN2C(=O)[C@@H](NC(=O)C2(F)CC2)C(C)(C)C)c(OCCc2ccc(CN3CCN(c4cc(-c5ccccc5O)nnc4N)CC3)cc2)c1,"SWI/SNF-related matrix-associated actin-dependent regulator of chromatin subfamily A member 4, bromodomain (SMARCA4, Homo sapiens, UniProt P51532)","ternary complex binding, TR-FRET competition",,added: VCB complex,,cooperativity factor alpha,0.8
O=c1c(O)c(-c2ccccc2)oc2cc3ccccc3cc12,ALB,"binding, ligand",,,,association constant,~10 1.000e+03 M⁻¹
O=C(CO)[C@@H](O[C@H]1O[C@H](CO)[C@@H](O)[C@H](O)[C@H]1O)[C@H](O)[C@H](O)CO,"uncharacterized protein (Pelagibacter ubique, UniProt Q4FMK2)",differential scanning fluorimetry,Candidatus Pelagibacter ubique,concentration not given,higher = stronger binding,ΔTm,4.13 °C
CC[C@H](C)[C@H](NC(=O)[C@H](Cc1ccccc1)NC(=O)[C@H](CCC(=O)O)NC(=O)[C@H](CCCNC(=N)N)NC(=O)[C@H](C)NC(=O)[C@H](C)NC(=O)[C@H](CCC(N)=O)NC(=O)[C@H](CCC(=O)O)NC(=O)[C@H](CCC(=O)O)NC(=O)[C@H](CC(C)C)NC(=O)[C@H](Cc1ccc(O)cc1)NC(=O)[C@H](CO)NC(=O)[C@H](CO)NC(=O)[C@@H](NC(=O)[C@H](CC(=O)O)NC(=O)[C@H](CO)NC(=O)[C@@H](NC(=O)[C@H](Cc1ccccc1)NC(=O)[C@@H](NC(=O)CNC(=O)[C@H](CCC(=O)O)NC(=O)[C@H](C)NC(=O)CCc1cnc[nH]1)[C@@H](C)O)[C@@H](C)O)C(C)C)C(=O)N[C@@H](C)C(=O)N[C@@H](Cc1c[nH]c2ccccc12)C(=O)N[C@@H](CC(C)C)C(=O)N[C@H](C(=O)N[C@@H](CCCCNC(=O)COCCOCCNC(=O)COCCOCCNC(=O)CC[C@H](NC(=O)CCCCCCCCCCCCCCCCC(=O)O)C(=O)O)C(=O)NCC(=O)N[C@@H](CCCNC(=N)N)C(=O)N[C@@H](CCCCNc1c(NCCCCCN(O)C(=O)CCC(=O)NCCCCCN(O)C(=O)CCC(=O)NCCCCCN(O)C(C)=O)c(=O)c1=O)C(=O)NCC(=O)NCC(=O)N[C@@H](CO)C(=O)N[C@@H](CCCCNc1c(NCCCCCN(O)C(=O)CCC(=O)NCCCCCN(O)C(=O)CCC(=O)NCCCCCN(O)C(C)=O)c(=O)c1=O)C(=O)O)C(C)C,GLP1R,"agonist, CRE luciferase reporter",BHK cells,"Zr-loaded DFO conjugate, added: 1% HSA",reference: parent peptide,fold potency loss,1.8
O=C(COP(=O)(O)O)[C@@H](O)[C@H](O)[C@H](O)COP(=O)(O)O,"Nuclear pore complex protein Nup133 (NUP133, Homo sapiens, UniProt Q8WUM0)","thermal proteome profiling, item: NUP133",HepG2 cell lysate,"concentration not given, 57 over 37 °C",reference: compound over control,thermal stability ratio,0.6 and 0.778 and 0.389
CC[C@H](C)[C@H](NC(=O)[C@H](Cc1ccccc1)NC(=O)[C@H](CCC(=O)O)NC(=O)[C@H](CCCNC(=N)N)NC(=O)[C@H](C)NC(=O)[C@H](C)NC(=O)[C@H](CCC(N)=O)NC(=O)[C@H](CCC(=O)O)NC(=O)[C@H](CCC(=O)O)NC(=O)[C@H](CC(C)C)NC(=O)[C@H](Cc1ccc(O)cc1)NC(=O)[C@H](CO)NC(=O)[C@H](CO)NC(=O)[C@H](CCCCNc1c(NCCCCCN(O)C(=O)CCC(=O)NCCCCCN(O)C(=O)CCC(=O)NCCCCCN(O)C(C)=O)c(=O)c1=O)NC(=O)[C@H](CC(=O)O)NC(=O)[C@H](CO)NC(=O)[C@@H](NC(=O)[C@H](Cc1ccccc1)NC(=O)[C@@H](NC(=O)CNC(=O)[C@H](CCC(=O)O)NC(=O)[C@H](C)NC(=O)CCc1cnc[nH]1)[C@@H](C)O)[C@@H](C)O)C(=O)N[C@@H](C)C(=O)N[C@@H](Cc1c[nH]c2ccccc12)C(=O)N[C@@H](CC(C)C)C(=O)N[C@H](C(=O)N[C@@H](CCCNC(=N)N)C(=O)NCC(=O)N[C@@H](CCCNC(=N)N)C(=O)N[C@@H](CCCCNC(=O)COCCOCCNC(=O)COCCOCCNC(=O)CC[C@H](NC(=O)CCCCCCCCCCCCCCCCC(=O)O)C(=O)O)C(=O)NCC(=O)NCC(=O)N[C@@H](CO)C(=O)N[C@@H](CCCCNc1c(NCCCCCN(O)C(=O)CCC(=O)NCCCCCN(O)C(=O)CCC(=O)NCCCCCN(O)C(C)=O)c(=O)c1=O)C(=O)O)C(C)C,GLP1R,"agonist, CRE luciferase reporter",BHK cells,"metal-free DFO conjugate, added: 1% HSA",reference: parent peptide,fold potency loss,9.6
Nc1nc2c(ncn2[C@@H]2O[C@H](COP(=O)(O)O)[C@@H](O)[C@H]2O)c(=O)[nH]1,"GUK1 (Homo sapiens, UniProt Q16774, S37A)","enzyme activity, NADH-coupled",,62.5 µM,,reaction rate,-0.55 s⁻¹ and 0.26 s⁻¹ and -1.76 s⁻¹
C=CC(=O)N1CCN(c2nc(OC[C@@H]3CCCN3C)nc3c(F)c(-c4nc(N)cc(C)c4C(F)(F)F)c(Cl)cc23)[C@@H](C)C1,"GTPase KRas, GDP-bound (KRAS, Homo sapiens, UniProt P01116)",,,,,kon,137000 ± 6800 M⁻¹ s⁻¹
CC[C@H](C)[C@H](NC(=O)[C@H](Cc1ccccc1)NC(=O)[C@H](CCC(=O)O)NC(=O)[C@H](CCCNC(=N)N)NC(=O)[C@H](C)NC(=O)[C@H](C)NC(=O)[C@H](CCC(N)=O)NC(=O)[C@H](CCC(=O)O)NC(=O)[C@H](CCC(=O)O)NC(=O)[C@H](CC(C)C)NC(=O)[C@H](Cc1ccc(O)cc1)NC(=O)[C@H](CO)NC(=O)[C@H](CO)NC(=O)[C@@H](NC(=O)[C@H](CC(=O)O)NC(=O)[C@H](CO)NC(=O)[C@@H](NC(=O)[C@H](Cc1ccccc1)NC(=O)[C@@H](NC(=O)CNC(=O)[C@H](CCC(=O)O)NC(=O)[C@H](C)NC(=O)CCc1cnc[nH]1)[C@@H](C)O)[C@@H](C)O)C(C)C)C(=O)N[C@@H](C)C(=O)N[C@@H](Cc1c[nH]c2ccccc12)C(=O)N[C@@H](CC(C)C)C(=O)N[C@H](C(=O)N[C@@H](CCCCNc1c(NCCCCCN(O)C(=O)CCC(=O)NCCCCCN(O)C(=O)CCC(=O)NCCCCCN(O)C(C)=O)c(=O)c1=O)C(=O)NCC(=O)N[C@@H](CCCNC(=N)N)C(=O)N[C@@H](CCCCNC(=O)COCCOCCNC(=O)COCCOCCNC(=O)CC[C@H](NC(=O)CCCCCCCCCCCCCCCCC(=O)O)C(=O)O)C(=O)NCC(=O)NCC(=O)N[C@@H](CO)C(=O)N[C@@H](CCCCNc1c(NCCCCCN(O)C(=O)CCC(=O)NCCCCCN(O)C(=O)CCC(=O)NCCCCCN(O)C(C)=O)c(=O)c1=O)C(=O)O)C(C)C,GLP1R,"agonist, CRE luciferase reporter",BHK cells,"Zr-loaded DFO conjugate, added: 0% HSA",reference: parent peptide,fold potency loss,4.2

# Repeated from above:
Structure (SMILES),target,assay,test system,setting,how to read,endpoint,value
NCC[C@H](O)C(=O)N[C@@H]1C[C@H](N)[C@@H](O[C@H]2O[C@H](CN)[C@@H](O)[C@H](O)[C@H]2O)[C@H](O)[C@H]1O[C@H]1O[C@H](CO)[C@@H](O)[C@H](N)[C@H]1O,ALB,tryptophan fluorescence quenching,,"10 to 60 µM, 289 K",,Stern-Volmer quenching constant,2.17 10³ M⁻¹
C=CC(=O)N1CCN(c2nc(OC[C@@H]3CCCN3C)nc3c(F)c(-c4nc(N)cc(C)c4C(F)(F)F)c(Cl)cc23)[C@@H](C)C1,"GTPase KRas, GDP-bound (KRAS, Homo sapiens, UniProt P01116)",,,,,kon,137000 ± 6800 M⁻¹ s⁻¹
Nc1nc2c(ncn2[C@@H]2O[C@H](COP(=O)(O)O)[C@@H](O)[C@H]2O)c(=O)[nH]1,"GUK1 (Homo sapiens, UniProt Q16774, S37A)","enzyme activity, NADH-coupled",,62.5 µM,,reaction rate,-0.55 s⁻¹ and 0.26 s⁻¹ and -1.76 s⁻¹
